Published values gathered from unrelated publications.
Protocols differ between the studies behind these lines.

CCCCCCCCCOC(=O)c1ccc(O)cc1 — Papp (PAMPA; 5 µM, pH 7.4): 3.06 ×10⁻⁶ cm/s
O=S1(=O)C=Cc2ccc(NCc3ccc(O)cc3)cc21 — Papp (PAMPA-BBB; pH 7.4): 12.8 ×10⁻⁶ cm/s
O=C(Oc1ccccc1)c1ccc(O)cc1 — Papp (PAMPA; 5 µM, pH 7.4): 5.35 ×10⁻⁶ cm/s
CN(C)C(=O)c1cccc(N2Cc3cn(Cc4ccc(F)cc4F)nc3C2)c1 — Papp (MDCK-MDR1): 46.3 ×10⁻⁶ cm/s
COc1ccc(CNc2ccc3c(c2)S(=O)(=O)CC3OC)cc1 (stereo not shown) — Papp (PAMPA-BBB; pH 7.4): 18 ×10⁻⁶ cm/s
Cn1cnnc1C1CCN(c2ncccc2-c2cccnc2)CC1 — Papp (PAMPA-BBB; 10 µM, 4 h, pH 7.4): 0.9 ×10⁻⁶ cm/s
C/C(N)=N/C(=N\S(=O)(=O)c1ccc(C(F)(F)F)cc1)N1C[C@H](c2ccccc2)C(c2ccc(Cl)cc2)=N1 — Papp (PAMPA; pH 7.4): 726 ×10⁻⁶ cm/s
COc1ccc(CNc2ccc3c(c2)S(=O)(=O)CC3)cc1 — Papp (PAMPA-BBB; pH 7.4): 23.1 ×10⁻⁶ cm/s
O=C(NCC(F)(F)F)c1cccc(N2Cc3cn(Cc4ccc(F)cc4)nc3C2)c1 — Papp (MDCK-MDR1): 3.4 ×10⁻⁶ cm/s
Cc1cc(C(=O)N[C@@H](CC(=O)NC(C)(C)C)C(=O)NCCNC(=O)c2cc(-c3ccccc3)ccn2)no1 — Papp (PAMPA; pH 7.4): 26.6 ×10⁻⁶ cm/s
CC[C@H](C)[C@@H]1NC(=O)[C@H](Cc2ccc(O)cc2)NC(=O)CSC[C@@H](C(N)=O)NC(=O)[C@H](CC(N)=O)NC(=O)[C@H](Cc2c[nH]cn2)NC(=O)[C@H](Cc2ccc(O)cc2)NC(=O)[C@H](CC(=O)O)NC(=O)[C@H](Cc2ccc(F)cc2)NC(=O)[C@H](CC(C)C)NC(=O)[C@H](CCCNC(=N)N)NC1=O — Papp (PAMPA; 200 µM, 5 h, pH 7.4): 0.0273 ×10⁻⁶ cm/s
O=S1(=O)C=Cc2ccc(NCc3cccc(O)c3)cc21 — Papp (PAMPA-BBB; pH 7.4): 16 ×10⁻⁶ cm/s
CN(C)C(=O)c1ccnc(N2Cc3cn(Cc4cc(F)cc(F)c4)nc3C2)n1 — Papp (MDCK-MDR1): 30 ×10⁻⁶ cm/s
CC[C@H](C)[C@@H]1NC(=O)[C@H](Cc2ccccc2)NC(=O)CSC[C@@H](C(N)=O)NC(=O)[C@H](CC(N)=O)NC(=O)[C@H](Cc2c[nH]cn2)NC(=O)[C@H](Cc2ccc(O)cc2)NC(=O)[C@H](C)NC(=O)[C@H](Cc2ccc(F)cc2)NC(=O)[C@H](CC(C)C)NC(=O)[C@H](CCCCN)NC1=O — Papp (PAMPA; 200 µM, 5 h, pH 7.4): 0.0226 ×10⁻⁶ cm/s
CN(C)C(=O)c1cccc(N2Cc3cn(Cc4ccc(F)cc4)nc3C2)c1 — Papp (MDCK-MDR1): 43.4 ×10⁻⁶ cm/s
Cc1cc(C(=O)N[C@@H](CC(=O)NC(C)(C)C)C(=O)NCCNC(=O)c2cccc(-n3cccn3)c2)no1 — Papp (PAMPA; pH 7.4): 6.4 ×10⁻⁶ cm/s

A few entries again:
Cn1cnnc1C1CCN(c2ncccc2-c2cccnc2)CC1 — Papp (PAMPA-BBB; 10 µM, 4 h, pH 7.4): 0.9 ×10⁻⁶ cm/s
